Experimental data pooled from the literature.
Each line is one published result; not all experiments were run side by side. ± gives the spread as reported.

CCCC[C@H](NC(=O)CNC(=O)CNC(=O)c1ccc(NN)nc1)C(=O)N[C@H]1CC(=O)NCCCC[C@@H](C(N)=O)NC(=O)[C@H](Cc2c[nH]c3ccccc23)NC(=O)[C@H](CCCNC(=N)N)NC(=O)[C@@H](Cc2ccccc2)NC(=O)[C@H](Cc2c[nH]cn2)NC1=O [technetium-99m labelled]
uptake ratio (C57 mouse, B16/F1 melanoma; 2 h, added: L-lysine; baseline: tumour over blood): 157

N=C(N)NCCC[C@@H]1NC(=O)[C@H](CCCCNC(=O)CC[C@H](NC(=O)CCOCCOCCOCCOCCNC(=O)CC[C@H](NC(=O)CN2CCN(CC(=O)O)CCN(CC(=O)O)CCN(CC(=O)O)CC2)C(=O)NCCOCCOCCOCCOCCC(=O)N[C@@H](CCC(=O)NCCCC[C@@H]2NC(=O)[C@@H](Cc3ccccc3)NC(=O)[C@H](CC(=O)O)NC(=O)CNC(=O)[C@H](CCCNC(=N)N)NC2=O)C(=O)NCCCC[C@@H]2NC(=O)[C@@H](Cc3ccccc3)NC(=O)[C@H](CC(=O)O)NC(=O)CNC(=O)[C@H](CCCNC(=N)N)NC2=O)C(=O)NCCCC[C@@H]2NC(=O)[C@@H](Cc3ccccc3)NC(=O)[C@H](CC(=O)O)NC(=O)CNC(=O)[C@H](CCCNC(=N)N)NC2=O)NC(=O)[C@@H](Cc2ccccc2)NC(=O)[C@H](CC(=O)O)NC(=O)CNC1=O [indium-111 labelled]
tissue uptake (female athymic nude mice, lungs; intravenous, 3 µCi, 1 h, U-87 MG glioma xenograft): 2.47 ± 0.66 %ID/g

Cc1ncsc1-c1ccc(CNC(=O)[C@@H]2C[C@@H](OC(=O)OCCSSCCn3cc(CCCC(=O)N[C@@H](Cc4ccc(O)cc4)C(=O)N[C@@H](CCCNC(=N)N)C(=O)N[C@@H](CCCNC(=N)N)C(=O)N[C@@H](CCCNC(=N)N)C(=O)N[C@@H](CCCNC(=N)N)C(=O)N[C@@H](CCCNC(=N)N)C(=O)N[C@@H](CCCNC(=N)N)C(=O)N[C@@H](CCCNC(=N)N)C(=O)N[C@@H](CCCNC(=N)N)C(=O)N[C@@H](CCCNC(=N)N)C(N)=O)nn3)CN2C(=O)[C@@H](NC(=O)COCCOCCOCCNC(=O)C[C@@H]2N=C(c3ccc(Cl)cc3)c3c(sc(C)c3C)-n3c(C)nnc32)C(C)(C)C)cc1
released payload (UHPLC; PBS; 100 nM, 0 h, 37 °C, added: 5 mM glutathione; baseline: total peak area): 0%

CSCC[C@H](NC(=O)[C@H](CC(C)C)NC(=O)CNC(=O)[C@H](Cc1ccccc1)NC(=O)[C@H](Cc1ccccc1)NC(=O)[C@H](CCC(N)=O)NC(=O)[C@H](CCC(N)=O)NC(=O)[C@@H]1CCCN1C(=O)[C@H](CCCCNC(=O)c1ccc(-c2c3ccc(=[N+](C)C)cc-3oc3cc(N(C)C)ccc23)c(C(=O)[O-])c1)NC(=O)[C@@H]1CCCN1C(=O)[C@@H](N)CCCNC(=N)N)C(N)=O
excitation maximum (PBS; 10 nM, pH 7.4): 560 nm

CSCC[C@H](NC(=O)[C@H](CC(C)C)NC(=O)[C@H](Cc1c[nH]cn1)NC(=O)CNC(=O)[C@@H](NC(=O)[C@H](C)NC(=O)[C@H](Cc1c[nH]c2ccccc12)NC(=O)[C@H](CCC(N)=O)NC(=O)CCCCNC(=O)CSCCSCCP(CO)CO)C(C)C)C(N)=O [technetium-99m labelled]
urinary excretion (female CF-1 mouse, urine; intravenous, dose not given, 4 h): 45.7%

CSCC[C@H](NC(=O)[C@H](CC(C)C)NC(=O)[C@H](Cc1c[nH]cn1)NC(=O)CNC(=O)[C@@H](NC(=O)[C@H](C)NC(=O)[C@H](Cc1c[nH]c2ccccc12)NC(=O)[C@H](CCC(N)=O)NC(=O)CCCCCNC(=O)CNC(=O)CNC(=O)CNC(=O)CSC(C)=O)C(C)C)C(N)=O [technetium-99m labelled]
tissue uptake (nude mouse, PC-3 xenograft, bone; 30 min): 0.5 ± 0.12 %ID/g

N=C(N)NCCC[C@@H]1NC(=O)[C@H](CCCCNC(=O)CNC(=O)CNC(=O)CNC(=O)CC[C@H](NC(=O)CCOCCOCCOCCOCCNC(=O)CC[C@H](NC(=O)CN2CCN(CC(=O)O)CCN(CC(=O)O)CCN(CC(=O)O)CC2)C(=O)NCCOCCOCCOCCOCCC(=O)N[C@@H](CCC(=O)NCC(=O)NCC(=O)NCC(=O)NCCCC[C@@H]2NC(=O)[C@@H](Cc3ccccc3)NC(=O)[C@H](CC(=O)O)NC(=O)CNC(=O)[C@H](CCCNC(=N)N)NC2=O)C(=O)NCC(=O)NCC(=O)NCC(=O)NCCCC[C@@H]2NC(=O)[C@@H](Cc3ccccc3)NC(=O)[C@H](CC(=O)O)NC(=O)CNC(=O)[C@H](CCCNC(=N)N)NC2=O)C(=O)NCC(=O)NCC(=O)NCC(=O)NCCCC[C@@H]2NC(=O)[C@@H](Cc3ccccc3)NC(=O)[C@H](CC(=O)O)NC(=O)CNC(=O)[C@H](CCCNC(=N)N)NC2=O)NC(=O)[C@@H](Cc2ccccc2)NC(=O)[C@H](CC(=O)O)NC(=O)CNC1=O [indium-111 labelled]
tissue uptake (female athymic nude mice, eyes; intravenous, 3 µCi, 24 h, U-87 MG glioma xenograft): 0.31 ± 0.01 %ID/g

CCCC[C@H](NC(=O)CNC(=O)CNC(=O)CNC(=O)c1ccc(NN)nc1)C(=O)N[C@H]1CC(=O)NCCCC[C@@H](C(N)=O)NC(=O)[C@H](Cc2c[nH]c3ccccc23)NC(=O)[C@H](CCCNC(=N)N)NC(=O)[C@@H](Cc2ccccc2)NC(=O)[C@H](Cc2c[nH]cn2)NC1=O [technetium-99m labelled]
uptake ratio (C57 mouse, B16/F1 melanoma; 2 h; baseline: tumour over blood): 148

N=C(N)NCCC[C@@H]1NC(=O)[C@H](CCCCNC(=O)CC[C@H](NC(=O)CCOCCOCCOCCOCCNC(=O)CN2CCN(CC(=O)O)CCN(CC(=O)O)CCN(CC(=O)O)CC2)C(=O)NCCCC[C@@H]2NC(=O)[C@@H](Cc3ccccc3)NC(=O)[C@H](CC(=O)O)NC(=O)CNC(=O)[C@H](CCCNC(=N)N)NC2=O)NC(=O)[C@@H](Cc2ccccc2)NC(=O)[C@H](CC(=O)O)NC(=O)CNC1=O [indium-111 labelled]
tumour to muscle ratio (female athymic nude mouse; intravenous, 3 µCi, 72 h, U-87 MG glioma xenograft; baseline: tumour over muscle): 6.36 ± 0.84

CC(C)C[C@H](NC(=O)[C@@H]1CCCN1C(=O)[C@H](CCCCN)NC(=O)[C@@H](N)CO)C(=O)N1CCC[C@H]1C(=O)N[C@@H](CCC(=O)O)C(=O)N[C@H](C(=O)N[C@H](C(=O)N[C@@H](CC(=O)O)C(=O)N[C@@H](CCC(=O)O)C(=O)N[C@@H](Cc1ccc(O)cc1)C(=O)N[C@@H](Cc1cn(CCOCCOCCOCCNC(=O)CCc2ccc(O)c(CN(CCN(CC(=O)O)Cc3cc(CCC(=O)NCCCC[C@H](NC(=O)N[C@@H](CCC(=O)O)C(=O)O)C(=O)O)ccc3O)CC(=O)O)c2)nn1)C(=O)O)[C@@H](C)O)C(C)C [gallium-68 labelled]
standardised uptake value (NMRI nu/nu mouse, LNCaP tumour, white adipose tissue; 10 MBq, high molar activity): 0.28 g/g

CCCC[C@H](NC(=O)CCCCCCCNC(=O)c1ccc(NN)nc1)C(=O)N[C@H]1CC(=O)NCCCC[C@@H](C(N)=O)NC(=O)[C@H](Cc2c[nH]c3ccccc23)NC(=O)[C@H](CCCNC(=N)N)NC(=O)[C@@H](Cc2ccccc2)NC(=O)[C@H](Cc2c[nH]cn2)NC1=O [technetium-99m labelled]
uptake (C57 mouse, B16/F1 melanoma, kidneys; intravenous, 24 h): 1.05 ± 0.07 %ID/g

N=C(N)NCCC[C@@H]1NC(=O)[C@H](CCCCNC(=O)CCOCCOCCOCCOCCNC(=O)CN2CCN(CC(=O)O)CCN(CC(=O)O)CCN(CC(=O)O)CC2)NC(=O)[C@@H](Cc2ccccc2)NC(=O)[C@H](CC(=O)O)NC(=O)CNC1=O [indium-111 labelled]
tumour to tissue ratio (athymic nude mice, female, U-87 MG glioma xenograft, tumour and blood; intravenous, 24 h; baseline: tumour over blood): 23.7 ± 1.84

Some of these lines once more:
CSCC[C@H](NC(=O)[C@H](CC(C)C)NC(=O)[C@H](Cc1c[nH]cn1)NC(=O)CNC(=O)[C@@H](NC(=O)[C@H](C)NC(=O)[C@H](Cc1c[nH]c2ccccc12)NC(=O)[C@H](CCC(N)=O)NC(=O)CCCCCNC(=O)CNC(=O)CNC(=O)CNC(=O)CSC(C)=O)C(C)C)C(N)=O [technetium-99m labelled]
tissue uptake (nude mouse, PC-3 xenograft, bone; 30 min): 0.5 ± 0.12 %ID/g

CSCC[C@H](NC(=O)[C@H](CC(C)C)NC(=O)[C@H](Cc1c[nH]cn1)NC(=O)CNC(=O)[C@@H](NC(=O)[C@H](C)NC(=O)[C@H](Cc1c[nH]c2ccccc12)NC(=O)[C@H](CCC(N)=O)NC(=O)CCCCNC(=O)CSCCSCCP(CO)CO)C(C)C)C(N)=O [technetium-99m labelled]
urinary excretion (female CF-1 mouse, urine; intravenous, dose not given, 4 h): 45.7%
